Assay results pooled from the literature.
Lines come from different studies, so protocols differ.

N=C(N)NCCC[C@H](NC(=O)CN)C(=O)N[C@@H](Cc1c[nH]c2ccccc12)C(=O)N[C@@H](CCCNC(=N)N)C(=O)N[C@@H](Cc1c[nH]c2ccccc12)C(=O)N[C@@H](Cc1c[nH]c2ccccc12)C(=O)N[C@@H](Cc1c[nH]c2ccccc12)C(=O)N[C@@H](CCCNC(=N)N)C(=O)N[C@@H](Cc1c[nH]c2ccccc12)C(=O)N[C@@H](CCCNC(=N)N)C(=O)N[C@@H](Cc1ccccc1)C(N)=O — MIC (Candida albicans; broth microdilution; CGMCC 2.209, RPMI 1640-MOPS; 48 h, 30 °C, with: FeCl3 4 µM): 4 µM
CC1(C)SC2C(NC(=O)C(NC(=O)C3=C(O)C(Cc4ccc(F)cc4)NC3=O)c3ccccc3)C(=O)N2C1C(=O)O (stereo not shown) — MIC (Escherichia coli; broth microdilution; Keio mutant JW0146-2; 18 h, ferric hydroxamate uptake gene): 25 µg/mL
CC[C@H](C)[C@H](NC(=O)CN)C(=O)NCC(=O)N[C@@H](CCCCN)C(=O)N[C@@H](Cc1ccccc1)C(=O)N[C@@H](CC(C)C)C(=O)N[C@@H](CCCCN)C(=O)N[C@@H](CCCCN)C(=O)N[C@@H](C)C(=O)N[C@@H](CCCCN)C(=O)N[C@@H](CCCCN)C(=O)N[C@@H](Cc1ccccc1)C(=O)NCC(=O)N[C@@H](CCCCN)C(=O)N[C@@H](C)C(=O)N[C@@H](Cc1ccccc1)C(=O)N[C@H](C(=O)N[C@@H](CCCCN)C(=O)N[C@H](C(=O)N[C@@H](CC(C)C)C(=O)N[C@@H](CCCCN)C(=O)N[C@@H](CCCCN)C(N)=O)[C@@H](C)CC)C(C)C — MIC (Salmonella typhimurium; broth dilution; SL1344): 6.3 µM
N=C(N)c1cccc(OCc2ccc(COc3cccc(C(=N)N)c3)cc2)c1 — MIC (Escherichia coli; BW25113 mcr-1; in combination, checkerboard, with: rifampicin): 50 µg/mL
CCC1(C2=NCCN2)Cc2ccccc2O1 (stereo not shown) — IC50 (Plasmodium falciparum; Dd2): 10 µM
N=C(N)NCCC[C@H](NC(=O)[C@H](Cc1c[nH]c2ccccc12)NC(=O)[C@H](CCCNC(=N)N)NC(=O)[C@H](Cc1c[nH]c2ccccc12)NC(=O)[C@H](Cc1c[nH]c2ccccc12)NC(=O)[C@H](Cc1c[nH]c2ccccc12)NC(=O)[C@H](CCCNC(=N)N)NC(=O)[C@H](Cc1c[nH]c2ccccc12)NC(=O)[C@H](CCCNC(=N)N)NC(=O)CN)C(N)=O — MIC (Candida albicans; CGMCC 2.209; no added salts): 4 µM
Cc1ccc2[nH]c3c(c2c1)CCCC3NCCc1ccc(O)cc1 (stereo not shown) — MIC (Staphylococcus simulans; broth microdilution; 22): 16 µg/mL
CC1(C)SC2C(NC(=O)C(NC(=O)C3=C(O)C(Cc4ccc(O)cc4)NC3=O)c3ccccc3)C(=O)N2C1C(=O)O (stereo not shown) — MIC (Escherichia coli; broth microdilution; ATCC 35218, low-level TEM-1; no clavulanic acid): > 200 µg/mL
N=C(N)NCCC[C@H](NC(=O)[C@H](Cc1c[nH]c2ccccc12)NC(=O)[C@H](CCCNC(=N)N)NC(=O)[C@H](Cc1c[nH]c2ccccc12)NC(=O)[C@H](Cc1c[nH]c2ccccc12)NC(=O)[C@H](Cc1c[nH]c2ccccc12)NC(=O)[C@H](CCCNC(=N)N)NC(=O)[C@H](Cc1c[nH]c2ccccc12)NC(=O)[C@@H](N)CCCNC(=N)N)C(=O)N[C@@H](Cc1c[nH]c2ccccc12)C(N)=O — MIC (Candida albicans; broth microdilution; 56452, RPMI 1640-MOPS; 48 h, 30 °C): 8 µM
CC[C@H](C)[C@H](NC(=O)CN)C(=O)NCC(=O)N[C@@H](C)C(=O)N[C@H](C(=O)N[C@@H](CC(C)C)C(=O)N[C@@H](CCCCN)C(=O)N[C@H](C(=O)N[C@@H](CC(C)C)C(=O)N[C@H](C(=O)N[C@H](C(=O)NCC(=O)N[C@@H](CC(C)C)C(=O)N1CCC[C@H]1C(=O)N[C@@H](C)C(=O)N[C@@H](CC(C)C)C(=O)N[C@H](C(=O)N[C@@H](CO)C(=O)N[C@@H](Cc1c[nH]c2ccccc12)C(=O)N[C@H](C(=O)N[C@@H](CCCCN)C(=O)N[C@@H](CCCNC(=N)N)C(=O)N[C@@H](CCCCN)C(=O)N[C@@H](CCCNC(=N)N)C(=O)N[C@@H](CCC(N)=O)C(=O)N[C@@H](CCC(N)=O)C(N)=O)[C@@H](C)CC)[C@@H](C)CC)[C@@H](C)O)[C@@H](C)O)C(C)C)C(C)C — MIC (Candida albicans; broth microdilution; 56452, RPMI-1640; 48 h, 30 °C): 4 µM
CC1(C)SC2C(NC(=O)C(NC(=O)C3=C(O)C4CCCN4C3=O)c3ccccc3)C(=O)N2C1C(=O)O (stereo not shown) — MIC (Escherichia coli; broth microdilution; ATCC 35218, low-level TEM-1; with: clavulanic acid 6 µg/mL): 200 µg/mL
Cc1ccccc1C(=O)NN=Cc1ccc(O)c(Br)c1 — MIC (Cryptococcus neoformans; compound alone, with: caspofungin): 1 µg/mL
CC1(C)SC2C(NC(=O)C(NC(=O)C3=C(O)CN(c4ccccc4)C3=O)c3ccccc3)C(=O)N2C1C(=O)O (stereo not shown) — MIC (Escherichia coli; broth microdilution; Keio mutant JW2142-1): 200 µg/mL
CCCCCCCC/C=C\CCCCCCCC(=O)NS(=O)(=O)NCCC — MIC (Streptococcus pneumoniae): > 200 µg/mL
CN[C@H](CC(C)C)C(=O)N[C@H]1C(=O)N[C@@H](CC(N)=O)C(=O)N[C@H]2C(=O)N[C@H]3C(=O)N[C@H](C(=O)N[C@H](C(=O)O)c4cc(O)cc(O)c4-c4cc3ccc4O)[C@H](O)c3ccc(c(Cl)c3)Oc3cc2cc(c3O[C@@H]2O[C@H](CO)[C@@H](O)[C@H](O)[C@H]2O[C@H]2C[C@](C)(N)[C@H](O)[C@H](C)O2)Oc2ccc(cc2Cl)[C@H]1O — MIC (Clostridioides difficile; agar dilution anaerobic; 3588; 48 h): 2 µg/mL
CC[C@H](C)[C@H](NC(=O)[C@H](CCCCN)NC(=O)[C@@H](NC(=O)[C@H](Cc1ccc(O)cc1)NC(=O)[C@H](CCCCN)NC(=O)[C@H](CCCCN)NC(=O)CNC(=O)[C@H](CCCCN)NC(=O)[C@@H](NC(=O)[C@H](C)NC(=O)[C@H](CC(C)C)NC(=O)[C@H](Cc1c[nH]c2ccccc12)NC(=O)CNC(=O)[C@@H](NC(=O)[C@H](Cc1ccccc1)NC(=O)[C@H](CCCCN)NC(=O)[C@H](CC(C)C)NC(=O)[C@H](Cc1ccccc1)NC(=O)[C@H](C)NC(=O)CNC(=O)[C@@H](N)CCSC)C(C)C)[C@@H](C)O)C(C)C)C(=O)N[C@@H](C)C(=O)N[C@@H](Cc1c[nH]c2ccccc12)C(=O)N[C@@H](CC(=O)O)C(=O)N[C@@H](Cc1c[nH]cn1)C(=O)N[C@@H](CCCCN)C(=O)NCC(=O)N[C@H](C(=O)N[C@H](C(=O)N[C@@H](CCSC)C(=O)N[C@@H](CCCCN)C(=O)N[C@@H](Cc1c[nH]c2ccccc12)C(=O)N[C@@H](CC(C)C)C(=O)N[C@@H](CC(N)=O)C(=O)N[C@@H](C)C(=O)NCC(=O)N[C@@H](CCC(N)=O)C(=O)N[C@H](C(=O)N[C@@H](Cc1ccccc1)C(=O)N[C@H](C(=O)N[C@@H](Cc1c[nH]c2ccccc12)C(=O)N[C@H](C(=O)N[C@@H](Cc1ccc(O)cc1)C(=O)N[C@@H](CCC(=O)O)C(=O)N[C@@H](CCC(N)=O)C(=O)N[C@H](C(=O)N[C@@H](CCCCN)C(=O)N[C@@H](CCCCN)C(=O)N[C@@H](CC(C)C)C(=O)N[C@@H](Cc1c[nH]c2ccccc12)C(=O)N[C@H](C(=O)O)[C@@H](C)O)[C@@H](C)CC)C(C)C)[C@@H](C)O)[C@@H](C)O)[C@@H](C)CC)[C@@H](C)O — MIC (Listeria seeligeri; broth microdilution; CECT 917; 37 °C): 2.6 µg/mL
CCCCCCCCCCCC(=O)NP(=O)(O)O — MIC (Streptococcus pneumoniae): 100 µg/mL
CC(C)CC1NC(=O)C(C(=O)NC(C(=O)NC2C(=O)N3C2SC(C)(C)C3C(=O)O)c2ccccc2)=C1O (stereo not shown) — MIC (Escherichia coli; broth microdilution; Keio mutant JW5086-3; 18 h, ferrienterobactin permease gene): 25 µg/mL
CC(C)C[C@@H]1NC(=O)[C@@H](Cc2ccccc2)NC(=O)[C@H](CCN)NC(=O)[C@@H](NC(=O)[C@H](CCN)NC(=O)[C@@H](N)[C@@H](C)O)CCNC(=O)[C@H]([C@@H](C)O)NC(=O)[C@H](CCN)NC(=O)[C@H](CCN)NC1=O — MIC (Escherichia coli; checkerboard; BW25113 mcr-1; compound alone): > 200 µg/mL
CC(C)C1NC(=O)C(C(=O)NC(C(=O)NC2C(=O)N3C2SC(C)(C)C3C(=O)O)c2ccccc2)=C1O (stereo not shown) — MIC (Escherichia coli; broth microdilution; ATCC 35218, low-level TEM-1; with: clavulanic acid 6 µg/mL): 200 µg/mL
CC(C)C[C@H](NC(=O)[C@H](CCCNC(=N)N)NC(=O)[C@H](Cc1c[nH]c2ccccc12)NC(=O)[C@H](CCCNC(=N)N)NC(=O)[C@H](Cc1c[nH]c2ccccc12)NC(=O)[C@H](Cc1c[nH]c2ccccc12)NC(=O)[C@H](Cc1c[nH]c2ccccc12)NC(=O)[C@H](CCCNC(=N)N)NC(=O)[C@H](Cc1c[nH]c2ccccc12)NC(=O)[C@H](CCCNC(=N)N)NC(=O)CN)C(N)=O — MIC (Candida albicans; broth microdilution; CGMCC 2.209, RPMI 1640-MOPS; 48 h, 30 °C, with: CaCl2 2 mM): 64 µM
O=C(CCCCCCCCCCOc1ccccc1)NP(=O)(O)O — MIC (Streptococcus pneumoniae): 100 µg/mL
N=C(N)NC(=N)Nc1cccc(Cl)c1 — IC50 (Plasmodium falciparum; 7G8): 10 µM
CC(C)(C)Oc1ccc(CC2NC(=O)C(C(=O)NC(C(=O)NC3C(=O)N4C3SC(C)(C)C4C(=O)O)c3ccccc3)=C2O)cc1 (stereo not shown) — MIC (Escherichia coli; broth microdilution; Keio mutant JW0146-2; 18 h, ferric hydroxamate uptake gene): 25 µg/mL
CCCCCCCCCCCCCCCC(=O)C(F)(F)P(=O)(O)O — MIC (Streptococcus pneumoniae): > 200 µg/mL
Cc1ncc([N+](=O)[O-])n1CCO — MIC (Clostridioides difficile): 0.06 to 0.5 µg/mL
CC1(C)SC2C(NC(=O)C(NC(=O)C3=C(O)C(Cc4ccco4)NC3=O)c3ccccc3)C(=O)N2C1C(=O)O (stereo not shown) — MIC (Escherichia coli; broth microdilution; isolate IU, CTX-M-14, TEM-1; with: clavulanic acid 6 µg/mL): 50 µg/mL
CC[C@H](C)[C@H](NC(=O)CN)C(=O)NCC(=O)N[C@@H](C)C(=O)N[C@H](C(=O)N[C@@H](CC(C)C)C(=O)N[C@@H](CCCCN)C(=O)N[C@H](C(=O)N[C@@H](CC(C)C)C(=O)N[C@H](C(=O)N[C@H](C(=O)NCC(=O)N[C@@H](CC(C)C)C(=O)N1CCC[C@H]1C(=O)N[C@@H](C)C(=O)N[C@@H](CC(C)C)C(=O)N[C@H](C(=O)N[C@@H](CO)C(=O)N[C@@H](Cc1c[nH]c2ccccc12)C(=O)N[C@H](C(=O)N[C@@H](CCCCN)C(=O)N[C@@H](CCCNC(=N)N)C(=O)N[C@@H](CCCCN)C(=O)N[C@@H](CCCNC(=N)N)C(=O)N[C@@H](CCC(N)=O)C(=O)N[C@@H](CCC(N)=O)C(N)=O)[C@@H](C)CC)[C@@H](C)CC)[C@@H](C)O)[C@@H](C)O)C(C)C)C(C)C — MIC (Candida albicans; broth microdilution; 56214, RPMI 1640-MOPS; 48 h, 30 °C): 8 µM

For quick reference, copied from above:
O=C(CCCCCCCCCCOc1ccccc1)NP(=O)(O)O — MIC (Streptococcus pneumoniae): 100 µg/mL
N=C(N)NC(=N)Nc1cccc(Cl)c1 — IC50 (Plasmodium falciparum; 7G8): 10 µM
CC(C)(C)Oc1ccc(CC2NC(=O)C(C(=O)NC(C(=O)NC3C(=O)N4C3SC(C)(C)C4C(=O)O)c3ccccc3)=C2O)cc1 (stereo not shown) — MIC (Escherichia coli; broth microdilution; Keio mutant JW0146-2; 18 h, ferric hydroxamate uptake gene): 25 µg/mL
